Measured values pooled from the literature.
Values joined by “and” are separate records of one study, mostly repeats; a detail may differ. ± gives the spread as reported.
T1: RNA, 2'-deoxy at 34-37 (Thermoanaerobacter tengcongensis); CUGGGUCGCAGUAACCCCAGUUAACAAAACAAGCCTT
T2: RNA, tetracycline-neomycin hybrid riboswitch; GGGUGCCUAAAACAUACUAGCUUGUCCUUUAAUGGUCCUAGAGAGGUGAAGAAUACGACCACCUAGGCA
T3: preQ1-II riboswitch RNA (Carnobacterium antarcticum); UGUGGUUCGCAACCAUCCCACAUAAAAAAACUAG
Chain of UniProt Q64663 (whole entry, unmodified, looked up): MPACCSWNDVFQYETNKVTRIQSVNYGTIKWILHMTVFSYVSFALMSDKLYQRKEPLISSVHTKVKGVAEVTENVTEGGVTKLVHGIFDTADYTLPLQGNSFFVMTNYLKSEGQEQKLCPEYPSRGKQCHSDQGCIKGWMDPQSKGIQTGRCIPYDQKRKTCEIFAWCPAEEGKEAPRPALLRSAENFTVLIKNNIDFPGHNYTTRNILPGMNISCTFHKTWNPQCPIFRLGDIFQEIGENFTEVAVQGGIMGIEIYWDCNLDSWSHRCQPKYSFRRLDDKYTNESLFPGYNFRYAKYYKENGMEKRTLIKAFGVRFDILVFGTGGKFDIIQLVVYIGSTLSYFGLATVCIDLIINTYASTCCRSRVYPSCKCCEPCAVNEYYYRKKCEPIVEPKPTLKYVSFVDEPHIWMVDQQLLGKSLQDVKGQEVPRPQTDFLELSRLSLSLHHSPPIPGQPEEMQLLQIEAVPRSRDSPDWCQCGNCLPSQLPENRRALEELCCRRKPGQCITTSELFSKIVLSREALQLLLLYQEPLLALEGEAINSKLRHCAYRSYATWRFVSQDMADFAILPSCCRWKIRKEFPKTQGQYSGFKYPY
Chain of UniProt P51575 (whole entry, unmodified, looked up): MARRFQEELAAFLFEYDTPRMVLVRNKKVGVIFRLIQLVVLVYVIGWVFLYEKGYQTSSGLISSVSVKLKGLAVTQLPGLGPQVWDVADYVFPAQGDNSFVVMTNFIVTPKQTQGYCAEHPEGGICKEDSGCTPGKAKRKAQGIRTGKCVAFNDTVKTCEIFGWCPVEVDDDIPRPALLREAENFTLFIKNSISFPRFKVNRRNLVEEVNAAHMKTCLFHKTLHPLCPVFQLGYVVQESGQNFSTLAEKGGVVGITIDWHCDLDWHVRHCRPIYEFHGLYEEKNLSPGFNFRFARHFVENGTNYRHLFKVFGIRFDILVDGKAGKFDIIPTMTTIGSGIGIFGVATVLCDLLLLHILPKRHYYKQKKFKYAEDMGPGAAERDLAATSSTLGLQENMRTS
Chain of UniProt Q96NY8 (whole entry, looked up): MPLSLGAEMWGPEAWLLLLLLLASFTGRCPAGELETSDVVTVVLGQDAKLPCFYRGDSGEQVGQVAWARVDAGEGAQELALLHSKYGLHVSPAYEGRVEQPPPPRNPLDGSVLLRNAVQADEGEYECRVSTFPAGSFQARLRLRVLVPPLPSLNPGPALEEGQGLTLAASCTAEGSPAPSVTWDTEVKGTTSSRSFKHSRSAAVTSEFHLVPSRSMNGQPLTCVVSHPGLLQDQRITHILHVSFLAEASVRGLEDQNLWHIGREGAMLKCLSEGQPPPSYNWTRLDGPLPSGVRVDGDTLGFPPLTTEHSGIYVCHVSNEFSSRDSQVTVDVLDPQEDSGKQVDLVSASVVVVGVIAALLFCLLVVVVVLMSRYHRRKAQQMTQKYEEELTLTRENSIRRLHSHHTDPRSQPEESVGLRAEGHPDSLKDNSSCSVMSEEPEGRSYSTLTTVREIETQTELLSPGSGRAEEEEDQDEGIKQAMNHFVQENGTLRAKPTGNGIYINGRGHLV
Chain of UniProt P31641 (whole entry, unmodified, looked up): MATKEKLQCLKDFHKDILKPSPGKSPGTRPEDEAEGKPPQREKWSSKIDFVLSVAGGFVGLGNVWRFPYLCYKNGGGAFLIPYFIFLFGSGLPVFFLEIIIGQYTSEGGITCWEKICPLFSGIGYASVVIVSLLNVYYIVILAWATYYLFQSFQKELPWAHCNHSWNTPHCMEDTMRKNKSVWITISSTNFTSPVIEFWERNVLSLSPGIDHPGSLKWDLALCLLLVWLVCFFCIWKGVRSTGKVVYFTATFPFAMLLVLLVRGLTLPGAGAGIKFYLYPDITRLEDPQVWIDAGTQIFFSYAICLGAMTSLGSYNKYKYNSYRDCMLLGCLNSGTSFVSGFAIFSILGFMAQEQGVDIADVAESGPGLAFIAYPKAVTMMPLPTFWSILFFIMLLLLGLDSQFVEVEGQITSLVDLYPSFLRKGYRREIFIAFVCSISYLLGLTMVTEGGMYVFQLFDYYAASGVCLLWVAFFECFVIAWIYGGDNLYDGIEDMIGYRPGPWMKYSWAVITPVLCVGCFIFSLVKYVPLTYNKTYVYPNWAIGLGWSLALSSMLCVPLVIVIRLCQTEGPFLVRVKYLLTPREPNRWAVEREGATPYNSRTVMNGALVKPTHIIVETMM
Chain of UniProt P0A8T7 (whole entry, looked up): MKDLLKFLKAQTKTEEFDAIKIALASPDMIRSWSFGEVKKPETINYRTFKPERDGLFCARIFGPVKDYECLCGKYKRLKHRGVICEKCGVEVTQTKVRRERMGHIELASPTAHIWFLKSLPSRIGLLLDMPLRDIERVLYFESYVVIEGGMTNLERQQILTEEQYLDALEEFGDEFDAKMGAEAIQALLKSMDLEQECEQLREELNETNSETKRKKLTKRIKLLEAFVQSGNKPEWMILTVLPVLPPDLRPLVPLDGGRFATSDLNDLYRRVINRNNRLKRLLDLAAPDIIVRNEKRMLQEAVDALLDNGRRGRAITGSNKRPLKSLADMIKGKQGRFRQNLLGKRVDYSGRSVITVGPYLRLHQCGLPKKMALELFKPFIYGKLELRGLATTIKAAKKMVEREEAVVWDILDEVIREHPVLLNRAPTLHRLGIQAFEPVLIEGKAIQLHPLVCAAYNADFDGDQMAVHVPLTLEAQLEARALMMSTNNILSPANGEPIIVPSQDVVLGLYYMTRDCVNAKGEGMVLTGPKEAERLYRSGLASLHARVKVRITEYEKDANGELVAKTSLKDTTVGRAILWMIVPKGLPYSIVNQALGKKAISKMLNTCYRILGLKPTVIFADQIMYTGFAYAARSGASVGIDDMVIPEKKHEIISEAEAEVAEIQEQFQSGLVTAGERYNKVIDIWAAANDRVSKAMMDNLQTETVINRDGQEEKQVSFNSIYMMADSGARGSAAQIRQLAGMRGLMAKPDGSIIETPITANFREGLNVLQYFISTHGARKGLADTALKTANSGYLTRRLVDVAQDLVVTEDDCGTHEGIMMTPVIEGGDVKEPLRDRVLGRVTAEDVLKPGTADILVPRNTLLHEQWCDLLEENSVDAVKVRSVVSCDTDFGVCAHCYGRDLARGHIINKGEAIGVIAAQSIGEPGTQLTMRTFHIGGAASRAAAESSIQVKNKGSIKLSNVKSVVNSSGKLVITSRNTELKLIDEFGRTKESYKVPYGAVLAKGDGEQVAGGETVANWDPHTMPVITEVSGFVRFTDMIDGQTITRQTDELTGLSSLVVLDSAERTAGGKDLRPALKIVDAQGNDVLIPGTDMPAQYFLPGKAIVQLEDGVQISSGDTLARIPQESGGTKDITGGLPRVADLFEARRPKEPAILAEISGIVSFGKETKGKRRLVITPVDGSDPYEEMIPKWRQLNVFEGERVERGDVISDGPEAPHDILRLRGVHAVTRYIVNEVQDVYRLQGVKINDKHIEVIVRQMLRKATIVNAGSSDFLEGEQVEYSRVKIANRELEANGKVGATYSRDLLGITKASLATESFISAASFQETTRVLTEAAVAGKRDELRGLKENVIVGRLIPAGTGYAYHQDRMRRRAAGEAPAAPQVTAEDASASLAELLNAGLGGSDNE
Chain of UniProt Q12791 (whole entry, looked up): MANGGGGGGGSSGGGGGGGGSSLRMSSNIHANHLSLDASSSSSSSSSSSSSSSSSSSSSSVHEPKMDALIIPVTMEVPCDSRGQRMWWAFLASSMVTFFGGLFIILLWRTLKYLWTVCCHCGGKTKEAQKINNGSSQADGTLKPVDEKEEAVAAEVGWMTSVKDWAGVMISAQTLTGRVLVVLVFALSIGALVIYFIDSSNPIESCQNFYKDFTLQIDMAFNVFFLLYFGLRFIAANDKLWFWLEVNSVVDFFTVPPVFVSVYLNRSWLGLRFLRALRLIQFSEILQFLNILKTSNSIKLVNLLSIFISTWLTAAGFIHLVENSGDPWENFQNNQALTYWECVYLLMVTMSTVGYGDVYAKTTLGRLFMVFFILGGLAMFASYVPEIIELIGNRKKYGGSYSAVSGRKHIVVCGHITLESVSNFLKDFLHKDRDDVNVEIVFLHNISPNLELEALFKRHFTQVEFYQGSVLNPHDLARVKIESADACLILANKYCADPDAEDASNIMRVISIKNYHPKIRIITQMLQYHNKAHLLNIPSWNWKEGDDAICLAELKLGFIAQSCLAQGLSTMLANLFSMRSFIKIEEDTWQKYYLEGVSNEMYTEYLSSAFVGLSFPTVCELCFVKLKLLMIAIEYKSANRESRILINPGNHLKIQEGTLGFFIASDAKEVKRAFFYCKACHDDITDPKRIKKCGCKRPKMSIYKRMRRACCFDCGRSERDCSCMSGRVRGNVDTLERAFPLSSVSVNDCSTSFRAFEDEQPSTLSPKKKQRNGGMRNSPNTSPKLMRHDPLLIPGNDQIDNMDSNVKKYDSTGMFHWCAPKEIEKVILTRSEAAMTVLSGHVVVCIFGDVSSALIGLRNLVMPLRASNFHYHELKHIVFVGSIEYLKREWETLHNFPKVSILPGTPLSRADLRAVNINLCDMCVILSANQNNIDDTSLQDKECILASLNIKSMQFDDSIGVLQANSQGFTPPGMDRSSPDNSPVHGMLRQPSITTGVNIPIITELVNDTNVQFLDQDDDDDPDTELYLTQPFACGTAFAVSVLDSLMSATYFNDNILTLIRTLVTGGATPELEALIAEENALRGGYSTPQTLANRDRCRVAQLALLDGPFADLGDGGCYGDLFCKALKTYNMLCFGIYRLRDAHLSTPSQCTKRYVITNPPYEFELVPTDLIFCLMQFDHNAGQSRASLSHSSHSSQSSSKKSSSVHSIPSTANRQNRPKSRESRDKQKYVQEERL
Chain of UniProt Q07011 (whole entry, looked up): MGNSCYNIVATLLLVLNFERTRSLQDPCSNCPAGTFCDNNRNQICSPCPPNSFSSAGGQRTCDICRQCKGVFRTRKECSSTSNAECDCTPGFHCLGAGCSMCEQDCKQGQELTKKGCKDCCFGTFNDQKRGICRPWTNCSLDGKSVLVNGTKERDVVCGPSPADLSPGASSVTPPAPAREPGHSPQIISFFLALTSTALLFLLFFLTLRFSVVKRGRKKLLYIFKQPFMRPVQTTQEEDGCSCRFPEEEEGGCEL

SMILES	target	assay	test system	setting	how to read	quantity	result
Nc1ncnc2c1ncn2[C@@H]1O[C@H](COP(=O)(O)CP(=O)(O)OP(=O)(O)O)[C@@H](O)[C@H]1O	P2X purinoceptor 1 (P2RX1, Homo sapiens, UniProt P51575, M214A)	saturation binding	HEK293	103 nM	–	specific binding	1390 CCPM and 1450 CCPM and 2710 CCPM
CCN1CCN(c2cc(N3CCN(CC)CC3)nc(NCCNc3ccnc4cc(Cl)ccc34)n2)CC1	Nuclear receptor subfamily 4 group A member 1 (NR4A1, Homo sapiens, UniProt P22736)	reporter gene, NBRE reporter full-length	–	10 µM	baseline: vehicle	activation	1.09 ± 0.18 fold
Oc1ccccc1-c1n[nH]cc1-c1ccnc2ccccc12	Mitogen-activated protein kinase HOG1 (HOG1, Candida albicans, UniProt Q92207)	kinase binding, MIB/MS competition	Candida albicans lysate	10 µM	baseline: DMSO, negative = stronger binding	log2 fold change	-0.04
Nc1ncnc2c1ncn2[C@@H]1O[C@H](COP(=O)(O)OP(=O)(O)OP(=O)(O)O)[C@@H](O)[C@H]1O	P2X purinoceptor 7 (P2rx7, Rattus norvegicus, UniProt Q64663, I214G)	ion current, agonist, two-electrode voltage clamp	Xenopus laevis oocytes	900 µM	baseline: highest concentration response	normalized current	0.918 and 1 and 0.9
CCCN(CCC)S(=O)(=O)c1ccc(-c2n[nH]c(=S)o2)cc1	P2X purinoceptor 2 (P2RX2, Homo sapiens, UniProt Q9UBL9)	calcium mobilization	MCF7 stably transfected	100 µM, with: ATP 100 µM	–	fluorescence increase	92.6 ± 2.11%
Nc1ncnc2[nH]cnc12	T1, RNA, 2'-deoxy at 34-37 (Thermoanaerobacter tengcongensis)	competitor, competitive displacement, Cy5 fluorescence	–	up to 500 µM	–	binding	no binding
NC[C@@H]1O[C@H](O[C@H]2[C@@H](O)[C@H](O[C@@H]3[C@@H](O)[C@H](N)C[C@H](N)[C@H]3O[C@H]3O[C@H](CN)[C@@H](O)[C@H](O)[C@H]3N)O[C@@H]2CO)[C@H](N)[C@@H](O)[C@@H]1O	T2, RNA, tetracycline-neomycin hybrid riboswitch	in-line probing	–	72 h, Mg2+ 10 mM, K+ 100 mM	–	binding	binds
NCc1c[nH]c2nc(N)[nH]c(=O)c12	T3, preQ1-II riboswitch RNA (Carnobacterium antarcticum)	X-ray crystallography	–	–	–	binding	binds
O=S(=O)(O)C1CCNCC1	Sodium- and chloride-dependent taurine transporter (SLC6A6, Homo sapiens, UniProt P31641, G62A)	binding, microscale thermophoresis	–	122 nM, room temperature, with: 50 nM labelled protein	higher = more binding	normalised MST signal	-0.0289
Nc1ccn([C@@H]2O[C@H](COP(=O)(O)OP(=O)(O)OP(=O)(O)O)[C@@H](O)[C@H]2O)c(=O)n1	DNA-directed RNA polymerase subunit beta' / DNA-directed RNA polymerase subunit beta (rpoC/rpoB, Escherichia coli, UniProt P0A8T7+P0A8V2)	RNA extension, rapid quench-flow	Escherichia coli, elongation complex, 6-MI template	200 µM, 25 °C, fast complex fraction	–	nucleotide addition rate	81 ± 5 s⁻¹
CN(C)C(=O)C(CCN1CCC(O)(c2ccc(Cl)cc2)CC1)(c1ccccc1)c1ccccc1	Calcium-activated potassium channel subunit alpha-1, with LRRC26 γ1 subunit (KCNMA1, Homo sapiens, UniProt Q12791)	ion current, inside-out patch, fit of G-V curve	BKα/γ1 channel	30 µM, with: nominally 0 Ca2+	–	V1/2	-7.82 mV
CCCC[C@@H]1NC(=O)[C@H](Cc2ccc(O)cc2)NC(=O)[C@@H]2CCCN2C(=O)[C@H](CC(=O)O)NC(=O)[C@H](C)NC(=O)[C@H](Cc2ccccc2)NC(=O)[C@@H]2CSCCC(=O)N3CN(CN(C3)C(=O)CCSC[C@H](NC(C)=O)C(=O)N[C@@H](CC(C)(C)C)C(=O)N3CCC[C@H]3C(=O)N[C@@H](CCC(=O)O)C(=O)N[C@H](CCCCNC(=O)CCc3cn(CCOCCOCCOCCN(CCOCCOCCOCCC(=O)N[C@H]4CSCCC(=O)N5CN6CN(C5)C(=O)CCSC[C@H](NC(=O)[C@@H](CC(=O)O)NC(=O)[C@H](Cc5cccc7ccccc57)NC(=O)[C@@H]5CCCN5C4=O)C(=O)N[C@@H](CCSC)C(=O)N[C@@H](CCCCNC(=N)N)C(=O)N[C@@H](CC(=O)O)C(=O)N[C@@H](Cc4c[nH]c5ccccc45)C(=O)N[C@@H](CO)C(=O)N[C@@H]([C@@H](C)O)C(=O)N4CCC[C@H]4C(=O)N4C[C@H](O)C[C@H]4C(=O)N[C@@H](Cc4c[nH]c5ccccc45)C(=O)N[C@H](C(N)=O)CSCCC6=O)CCOCCOCCOCCn4cc(CCC(=O)NCCCC[C@H]5NC(=O)[C@H](CCC(=O)O)NC(=O)[C@@H]6CCCN6C(=O)[C@H](CC(C)(C)C)NC(=O)[C@@H](NC(C)=O)CSCCC(=O)N6CN7CN(C6)C(=O)CCSC[C@H](NC(=O)[C@H](Cc6ccc(O)cc6)NC(=O)[C@@H]6CCCN6C5=O)C(=O)N[C@@H](Cc5ccccc5)C(=O)N[C@@H](C)C(=O)N[C@@H](CC(=O)O)C(=O)N5CCC[C@H]5C(=O)N[C@@H](Cc5ccc(O)cc5)C(=O)N[C@@H](CCCC)C(=O)N[C@H](C(N)=O)CSCCC7=O)nn4)nn3)C(=O)N3CCC[C@H]3C(=O)N[C@@H](Cc3ccc(O)cc3)C(=O)N2)C(=O)CCSC[C@@H](C(N)=O)NC1=O	Tumor necrosis factor receptor superfamily member 9/Nectin-4 (Homo sapiens, UniProt Q07011+Q96NY8)	reporter gene, agonist	HT-1376 coculture with reporter cells	–	baseline: background	Emax	70 fold

Excerpt of the above:
SMILES	target	assay	test system	setting	how to read	quantity	result
Nc1ccn([C@@H]2O[C@H](COP(=O)(O)OP(=O)(O)OP(=O)(O)O)[C@@H](O)[C@H]2O)c(=O)n1	DNA-directed RNA polymerase subunit beta' / DNA-directed RNA polymerase subunit beta (rpoC/rpoB, Escherichia coli, UniProt P0A8T7+P0A8V2)	RNA extension, rapid quench-flow	Escherichia coli, elongation complex, 6-MI template	200 µM, 25 °C, fast complex fraction	–	nucleotide addition rate	81 ± 5 s⁻¹
